Results from different studies.
A part holds a random share of what one study measured. Changes are numbered by the printed parent chain.

Study 1
Target: Prothrombin, mature alpha-thrombin (F2, Homo sapiens, UniProt P00734)
Technique: aptamer microarray, sandwich
Form: DNA with 2'F-ANA
Matrix: in vitro
Concentration: 200 nM
Notes: whole 15-mer aptamer, many near background
Added: Cy3 exosite-II aptamer, 400 nM
Reading: higher = stronger binding
Endpoint: mean fluorescence intensity
Strand: GGTTGGTGTGGTTGG
2'F-ANA at 1 2 3 4 7 9 10 11 12 15: 89 a.u.
2'F-ANA at 1 3 5 8 10 11 13: 60.1 a.u.
2'F-ANA at 3 4 5 6 7 9 11 12 13 15: 88.6 a.u.
2'F-ANA at 8 9 11 12 14 15: 207 a.u.
2'F-ANA at 1 5 6 10 11 12 13 14 15: 49.3 a.u.
2'F-ANA at 2 9 11 12 13 15: 490 a.u.
2'F-ANA at 1 3 5 6 7: 70.2 a.u.
2'F-ANA at 1 6 7 9 11 12 15: 233 a.u.

Study 2
Target: CCND2, cyclin fold, Cln2 fusion (human)
Technique: yeast growth competition, sequencing
Matrix: yeast
Notes: weak parent motif
Relative to: not given
Reading: higher = stronger binding
Endpoint: normalised enrichment score
Starting sequence: viral docking peptide; TSVRRALFTGGSD; partner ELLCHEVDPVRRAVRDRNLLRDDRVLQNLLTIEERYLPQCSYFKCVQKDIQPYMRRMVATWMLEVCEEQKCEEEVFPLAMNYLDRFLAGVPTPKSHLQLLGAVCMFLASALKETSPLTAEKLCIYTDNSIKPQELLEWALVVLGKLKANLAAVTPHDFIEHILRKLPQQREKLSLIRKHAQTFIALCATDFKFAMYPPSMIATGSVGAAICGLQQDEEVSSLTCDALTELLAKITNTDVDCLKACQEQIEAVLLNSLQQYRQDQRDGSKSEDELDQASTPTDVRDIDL
TSVRRALFTGGND [S12N]: 0.0646
TSRRRALFTGGSD [V3R]: 0.558
TSARRALFTGGSD [V3A]: 0.262
TSVRRASFTGGSD [L7S]: -0.0352
TSVRAALFTGGSD [R5A]: 0.118
TSVRTALFTGGSD [R5T]: -0.0753
TSVRRTLFTGGSD [A6T]: -0.123
TSVRRALATGGSD [F8A]: 0.0308
TSVLRALFTGGSD [R4L]: -0.0364
TSVRRALFTTGSD [G10T]: -0.202
TSVRRALFTGWSD [G11W]: -0.148
TPVRRALFTGGSD [S2P]: 0.0324
TSVRRALFPGGSD [T9P]: 0.0527
TSVRRALFTGGDD [S12D]: 0.11
TSCRRALFTGGSD [V3C]: 0.197
TSWRRALFTGGSD [V3W]: -0.475
TSVRRALWTGGSD [F8W]: -0.172

Study 3
Target: tungstate, free oxyanion
Technique: microfluidic competitive inhibition
Matrix: in vitro, cell-free expressed
Concentration: not given
Notes: derived from inhibition constants, unchanged parent 2230 nM
Reading: lower = stronger binding
Endpoint: oxyanion analog dissociation constant
Starting sequence: PafA, mature enzyme, eGFP fusion (Elizabethkingia meningoseptica, UniProt Q9KJX5); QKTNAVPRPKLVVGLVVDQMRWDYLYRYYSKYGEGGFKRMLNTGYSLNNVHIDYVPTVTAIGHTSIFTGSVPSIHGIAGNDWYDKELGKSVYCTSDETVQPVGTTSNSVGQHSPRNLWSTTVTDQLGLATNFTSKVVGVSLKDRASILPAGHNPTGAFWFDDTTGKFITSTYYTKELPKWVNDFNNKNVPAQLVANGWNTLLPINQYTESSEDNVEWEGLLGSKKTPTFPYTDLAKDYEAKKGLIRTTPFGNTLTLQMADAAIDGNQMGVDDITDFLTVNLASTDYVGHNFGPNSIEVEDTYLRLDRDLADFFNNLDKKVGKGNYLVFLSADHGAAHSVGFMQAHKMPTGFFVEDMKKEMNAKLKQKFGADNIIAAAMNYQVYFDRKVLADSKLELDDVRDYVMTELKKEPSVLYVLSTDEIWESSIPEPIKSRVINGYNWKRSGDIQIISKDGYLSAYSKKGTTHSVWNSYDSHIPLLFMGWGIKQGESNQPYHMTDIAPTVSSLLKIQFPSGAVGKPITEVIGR
T123G: 1.96 µM
I431G: 0.704 µM
F384V: 1.35 µM

Study 4
Target: Cyclic AMP-dependent transcription factor ATF-1 (ATF1, Homo sapiens, UniProt P18846, residues 1-271, full length assumed)
Technique: protein-binding microarray
Form: double-stranded DNA, one strand shown
Matrix: in vitro
Concentration: not given
Notes: k-mer, scored over probes, only values ≥0.25
Reading: higher = stronger binding
Endpoint: E-score
Residues (chain): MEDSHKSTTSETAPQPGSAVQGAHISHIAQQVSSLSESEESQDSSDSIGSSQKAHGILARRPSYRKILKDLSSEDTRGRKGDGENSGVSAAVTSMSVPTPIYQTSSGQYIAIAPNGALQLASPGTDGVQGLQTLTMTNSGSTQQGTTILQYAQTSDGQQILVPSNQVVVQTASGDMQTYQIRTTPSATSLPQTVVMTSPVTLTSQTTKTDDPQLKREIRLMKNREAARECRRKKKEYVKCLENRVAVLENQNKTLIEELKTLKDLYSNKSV
ACAAGTG: 0.253
ATATGAC: 0.366
AAACGTG: 0.25
GATGTGA: 0.316
ACGACAA: 0.254
CGTCGAC: 0.27
AACGTAG: 0.325
CTGTGAC: 0.367

Repeated from above (study 2):
TSVRRALFTTGSD [G10T]: -0.202
TSVRRALFPGGSD [T9P]: 0.0527
TSRRRALFTGGSD [V3R]: 0.558
TSVRRASFTGGSD [L7S]: -0.0352
TSVRAALFTGGSD [R5A]: 0.118
